# Measurements gathered from unrelated publications.
# Lines come from different studies, so protocols differ. “And” joins repeats or separate records; there may be more than shown. ± marks the error that the study gave.
# Chain of UniProt P10635 (whole entry, looked up): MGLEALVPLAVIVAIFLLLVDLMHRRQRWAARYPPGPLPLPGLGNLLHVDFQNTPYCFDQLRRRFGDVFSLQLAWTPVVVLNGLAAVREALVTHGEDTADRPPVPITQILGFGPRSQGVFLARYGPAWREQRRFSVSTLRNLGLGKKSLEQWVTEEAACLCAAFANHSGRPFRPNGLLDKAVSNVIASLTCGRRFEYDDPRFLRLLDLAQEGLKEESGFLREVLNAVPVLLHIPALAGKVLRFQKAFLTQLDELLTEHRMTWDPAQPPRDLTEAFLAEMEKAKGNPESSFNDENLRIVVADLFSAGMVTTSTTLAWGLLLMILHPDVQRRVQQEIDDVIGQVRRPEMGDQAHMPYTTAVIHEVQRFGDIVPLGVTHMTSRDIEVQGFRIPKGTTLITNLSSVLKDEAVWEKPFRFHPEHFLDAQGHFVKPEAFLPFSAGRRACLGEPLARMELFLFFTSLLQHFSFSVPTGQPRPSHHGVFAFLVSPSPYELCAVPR
# Chain of UniProt P06873 (whole entry, looked up): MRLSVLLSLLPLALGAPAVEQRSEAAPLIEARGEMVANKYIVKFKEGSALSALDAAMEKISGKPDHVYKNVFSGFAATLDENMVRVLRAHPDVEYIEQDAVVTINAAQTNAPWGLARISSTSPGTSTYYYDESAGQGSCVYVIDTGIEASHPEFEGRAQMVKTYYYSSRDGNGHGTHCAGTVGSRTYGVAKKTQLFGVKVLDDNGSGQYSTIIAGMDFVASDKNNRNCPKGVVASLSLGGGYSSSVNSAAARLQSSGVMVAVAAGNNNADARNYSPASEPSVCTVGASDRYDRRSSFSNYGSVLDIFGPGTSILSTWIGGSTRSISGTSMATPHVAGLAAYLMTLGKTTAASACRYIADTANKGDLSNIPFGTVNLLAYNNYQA
SMILES,tested on,test,test system,conditions,how to read,endpoint,value
C[C@@H]1O[C@H]2O[C@@H]3C4(O)C(=O)c5cccc(O)c5C(=O)C4(O)O[C@]3(C)[C@]21O (stereo partly shown),HFF,"cell growth or viability, MTT",,48 h,,CC50,195 µM
CN1CCCNC(=O)c2cccc(c2)C(=O)NCCCN(C)CCCNc2cccc3c2C(=O)c2cccc(c2C3=O)NCCC1,mouse bone marrow cells,CCK-8,,"0.5 µM, 48 h",relative to: untreated,viability,91.3%
NCCNc1nnnc2c1sc1nc(N3CCOCC3)c3c(c12)CCCC3,cryopreserved human hepatocytes,UHPLC-MS peak area,,"1 µM, 120 min",,percentage of drug-related material,10%
OC[C@H]1O[C@@H](c2ccc(Cl)c(Cc3ccc(OC4CCCC4)cc3)c2)[C@H](O)[C@@H](O)[C@@H]1O,H9c2,CCK-8,,"0.1 µM, with: glucose deprivation",relative to: control,viability,48.5 ± 6.33%
COc1ccccc1CN1CC(C(=O)NCCN(C)CCc2ccccc2)CCC1=O (stereo not shown),Trypanosoma cruzi,"reporter mRNA translation, inhibitor, item: Renilla luciferase mRNA",cell-free extract,"concentration not given, test 1",relative to: positive over negative control,translation activity,107% and 120%
CCCC[C@H](NC(C)=O)C(=O)N[C@@H](CO)C(=O)N[C@H](C(=O)N1CCC[C@H]1C(=O)N[C@]1(C)CCCCCCC=CCCC[C@@](C)(C(=O)N[C@@H](Cc2ccccc2)C(=O)N[C@@H](CCCCN)C(=O)N[C@@H](CCCNC(=N)N)C(=O)N[C@@H](CC(C)C)C(=O)N[C@@H](CCC(N)=O)C(N)=O)NC(=O)[C@H](CCCNC(=N)N)NC(=O)[C@H](CCCC)NC(=O)[C@H](CC(C)C)NC(=O)[C@H](CCCNC(=N)N)NC(=O)[C@H](CCCNC(=N)N)NC(=O)[C@H](CCCNC(=N)N)NC1=O)[C@@H](C)O,"Proteinase K (PROK, Engyodontium album, UniProt P06873)","proteolytic stability, LC-MS",,"25 µM, 615.1 min, pH 7.4",,remaining intact peptide,31.9%
CC(C)OCCOCc1ccc(OCC(O)CN(N=O)C(C)C)cc1 (stereo not shown),Escherichia coli,Ames test,WP2 uvrA,"1580 µg/plate, 30 % hamster S9",relative to: solvent control,revertant fold increase,1.1 fold
Cn1c2ccc([N+](=O)[O-])cc2c(=O)n1Cc1ccccc1,BALB/c mouse peritoneal macrophages,"cytotoxicity, resazurin",,"48 h, 10% fetal bovine serum",,CC50,4.1 µM
CC(C)C[C@H](NC(=O)[C@H](CC(N)=O)NC(=O)[C@H](CCCNC(=N)N)NC(=O)[C@@H](CC(C)C)NC(=O)[C@H](Cc1ccc(-c2ccccc2)cc1)NC(=O)[C@H](CC(=O)O)NC(=O)[C@H](CCCNC(=N)N)NC(=O)[C@@H](CC(C)C)NC(=O)[C@H](CCCCN)NC(=O)[C@H](CCC(N)=O)NC(=O)[C@@H](NC(=O)[C@@H](CC(C)C)NC(=O)[C@H](CCCNC(=N)N)NC(=O)[C@H](CCCCN)NC(=O)[C@H](Cc1ccc(-c2ccccc2)cc1)NC(=O)CN)C(C)C)C(=O)N[C@H](C(N)=O)C(C)C,human erythrocytes,hemolysis,,"1 h, 37 °C",relative to: Triton X-100,HC50,140 µM
O=C(O)/C=C\C(=O)NCCCOCCOCCOCCCNC(=O)/C=C\C(=O)O,HFDPC,MTT,,"up to 1000 ppm, 24 h",,cytotoxicity,not toxic
C=C1C(=O)OC2C1CCC(C)(O)C13C=CC(C)(C21)C1(C3)C(=O)OC2C3C(C)=CCC3C(C)(OC(C)=O)CC(O)C21 (stereo not shown),AML12 mouse hepatocytes,MTT,,"24 h, 10% FBS",,maximum safe concentration,5 µM
CO[C@@H]1[C@@H](O)[C@H](c2ccc(Cl)c(Cc3ccc(O[C@H]4CCOC4)cc3)c2)O[C@H](CO)[C@H]1O,H9c2,CCK-8,,"0.1 µM, with: glucose deprivation",relative to: control,viability,43.8 ± 7.86%
CNC(=O)C1CCCN(C(=O)C2CC3CCC2N3C(=O)[C@@H]2C[C@@H](O)CN2C(=O)NCc2cccc(Cl)c2F)C1 (mixture of isomers),"Cytochrome P450 2D6 (CYP2D6, Homo sapiens, UniProt P10635)","enzyme activity, inhibitor, time-dependent inhibition",,"16.7 µM, preincubated without NADPH",,dextrorphan formation,155 ng/mL
C[N+](C)(CF)CCO,HK-2,"cell growth or viability, ATP luminescence",,24 h,,IC50,> 150 µM
COc1cc(N2CCN(C(=O)CCOCCNC(=O)[C@@H]3CCCN3)CC2)ccc1Nc1ncc(Cl)c(Nc2ccccc2P(C)(C)=O)n1,NCI-H3122,CCK-8,,"2.5 µM, 48 h",,viability,22% and 26% and 23%
C=C1C(=O)OC2C1CCC(C)(O)C13C=CC(C)(C21)C1(C3)C(=O)OC2C3C(C)=CCC3C(C)(O)CCC21 (stereo not shown),AML12 mouse hepatocytes,MTT,,"24 h, 10% FBS",,maximum safe concentration,40 µM
CC1(C)CC(c2ccc(Cl)cc2)=C2CN3CCN(c4ccc(C(=O)NS(=O)(=O)c5ccc(NCC6CCOCC6)c([N+](=O)[O-])c5)c(Oc5cnc6[nH]ccc6c5)c4)CC3OC2C1 (stereo not shown),primary human hepatocytes,substrate,,with: venetoclax,,metabolite detection,not detected
CCc1ccc(CN2CCCC(CNC(=O)c3cccc(OC)c3OC)C2)cc1 (stereo not shown),Trypanosoma cruzi,"reporter mRNA translation, inhibitor, item: Renilla luciferase mRNA",cell-free extract,"concentration not given, test 1",relative to: positive over negative control,translation activity,128% and 111%
C=C1C(=O)OC2C1CCC(C)(O)C13C=CC(C)(C21)C1(C3)C(=O)CC2(C(C)C)CC21 (stereo not shown),AML12 mouse hepatocytes,MTT,,"24 h, 10% FBS",,maximum safe concentration,1.25 µM
O=S(=O)(Nc1ccc(CO)cc1)c1ccc(Cl)c(Cl)c1,cryopreserved human hepatocytes,pan-CYP inhibition,,"1 µM, with: 1 mM 1-aminobenzotriazole and 15 µM tienilic acid",,metabolism inhibited by ABT and TA,24%
C[C@H]1O[C@@H]2C3=C(O[C@]2(C)[C@@]1(O)C=O)C(=O)c1c(O)cccc1C3=O,HFF,"cell growth or viability, MTT",,48 h,,CC50,23 µM
C=C1C(=O)OC2C1CCC(C)(O)C13C=CC(C)(C21)C1(C3)C(=O)OC2C3C(C)=CCC3=C(C)CC(OC(C)=O)C21 (stereo not shown),AML12 mouse hepatocytes,MTT,,"24 h, 10% FBS",,maximum safe concentration,5 µM
CCOC(=O)c1cn(CC(c2c[nH]c3cc(Br)ccc23)c2c[nH]c3cc(Br)ccc23)c(C)c1C(=O)OC,DH82,"cell growth or viability, MTS",,24 h,,CC50,> 20 µM
C=C1C(=O)OC2C1CCC(C)(O)C13C=CC(C)(C21)C1(C3)C(=O)OC2C3C(C)=CCC3C(C)(O)CC(O)C21 (stereo not shown),AML12 mouse hepatocytes,MTT,,"24 h, 10% FBS",,maximum safe concentration,40 µM
CO[C@H]1[C@H](O)[C@@H](O)[C@H](c2ccc(Cl)c(Cc3ccc(O[C@H]4CCOC4)cc3)c2)O[C@@H]1CO,H9c2,CCK-8,,"0.1 µM, with: glucose deprivation",relative to: control,viability,48.3 ± 2.43%
Nc1ncc(-c2cc(-c3cnn(CC(F)(F)F)c3)ncc2F)nc1C(=O)NC1CNCC(F)C1 (stereo not shown),DAPK3,KINOMEscan,,1 µM,relative to: DMSO control,remaining binding,100%
CC(C)(O)c1ncc([S@](N)(=O)=NC(=O)Nc2c3c(cc4c2CCC4)CCC3)s1,,item: nervous system disorders,healthy human volunteers,"oral, 600 mg single dose, spray-dried dispersion",,subjects with adverse events,83%
COCCN(C)CC(=O)NC(Cc1ccc(-c2ccccc2)cc1)B(O)O (stereo not shown),primary human hepatocytes,cytotoxicity,,96 h,,IC50,> 10 µM
C=C1C(=O)OC2C1CCC(C)(O)C13C=CC(C)(C21)C1(C3)C(=O)OC2C3=C(C)CC(O)C3C(=C)CC(OC(=O)C(C)=CC)C21 (stereo not shown),AML12 mouse hepatocytes,MTT,,"24 h, 10% FBS",,maximum safe concentration,10 µM
C[C@H](NP(=O)(O)OC[C@H]1O[C@@](C#N)(c2ccc3c(N)ncnn23)[C@H](O)[C@@H]1O)C(=O)O,primary human hepatocytes,item: DNA,,4 h,,CC50,> 100 µM
C=C1C(=O)OC2C1CCC(C)(O)C13C=CC(C)(C21)C1(C3)C(=O)OC2C3C(C)=CC(=O)C3C(C)CC(OC(C)=O)C21 (stereo not shown),AML12 mouse hepatocytes,MTT,,"24 h, 10% FBS",,maximum safe concentration,40 µM
O=C1NC2(CC2)COc2ncc(F)cc2[C@H]2COCCN2c2ccn3ncc1c3n2,CHL,,,"300 µg/mL, 4 h, without S9",,structural aberrations,0.7%
C=C1C(=O)OC2C1CCC(C)(O)C13C=CC(C)(C21)C1(C3)C(=O)OC2C3C(C)C(=O)CC3C(=C)CC(OC(C)=O)C21 (stereo not shown),AML12 mouse hepatocytes,MTT,,"24 h, 10% FBS",,maximum safe concentration,10 µM
COc1cc(N2CCN(C(=O)C3CCCN3)CC2)ccc1Nc1ncc(Cl)c(Nc2ccccc2P(C)(C)=O)n1 (stereo not shown),Ba/F3 EML4-ALK,"cell growth or viability, CCK-8",,"1 µM, 3 h",,viability,72% and 68% and 71%

# Some of these lines once more:
SMILES,tested on,test,test system,conditions,how to read,endpoint,value
COCCN(C)CC(=O)NC(Cc1ccc(-c2ccccc2)cc1)B(O)O (stereo not shown),primary human hepatocytes,cytotoxicity,,96 h,,IC50,> 10 µM
CCOC(=O)c1cn(CC(c2c[nH]c3cc(Br)ccc23)c2c[nH]c3cc(Br)ccc23)c(C)c1C(=O)OC,DH82,"cell growth or viability, MTS",,24 h,,CC50,> 20 µM
C=C1C(=O)OC2C1CCC(C)(O)C13C=CC(C)(C21)C1(C3)C(=O)OC2C3C(C)=CCC3C(C)(O)CCC21 (stereo not shown),AML12 mouse hepatocytes,MTT,,"24 h, 10% FBS",,maximum safe concentration,40 µM
